Published values of several laboratories.
Compare with care: the assays were run in different laboratories. Numbers after ± are the reported error. ≈ marks a conversion by molar mass, not a printed value.
Organism: Pseudomonas aeruginosa

`CC[C@H](C)[C@H](N)C(=O)N[C@@H](CC(C)C)C(=O)N1CCC[C@H]1C(=O)N[C@@H](Cc1c[nH]c2ccccc12)C(=O)N[C@@H](CCCCN)C(=O)N[C@@H](Cc1c[nH]c2ccccc12)C(=O)N1CCC[C@H]1C(=O)N[C@@H](Cc1c[nH]c2ccccc12)C(=O)N[C@@H](Cc1c[nH]c2ccccc12)C(=O)N1CCC[C@H]1C(=O)N[C@@H](Cc1c[nH]c2ccccc12)C(=O)N[C@@H](CCCNC(=N)N)C(=O)N[C@@H](CCCNC(=N)N)C(N)=O` has an MIC50 of 16 µg/mL (broth microdilution; 18 h, 10 clinical isolates).
For `CC[C@H](C)[C@H](NC(=O)[C@H](C)NC(=O)[C@@H](NC(=O)[C@H](C)NC(=O)CNC(=O)[C@H](CCSC)NC(=O)[C@H](CCC(N)=O)NC(=O)[C@H](CC(C)C)NC(=O)[C@H](CO)NC(=O)[C@@H](N)Cc1ccc(O)cc1)[C@@H](C)O)C(=O)N[C@@H](CCCCN)C(=O)N[C@@H](CCC(N)=O)C(=O)N[C@H](C(=O)N[C@@H](CCCCN)C(=O)N[C@@H](CCCCN)C(=O)N[C@@H](CC(C)C)C(=O)N[C@@H](Cc1ccccc1)C(=O)N[C@@H](CCCCN)C(=O)N[C@@H](CCCCN)C(=O)N[C@@H](CCCCN)C(=O)NCC(=O)NCC(N)=O)C(C)C`, the MBC was 310 µM (≈ 751 µg/mL) (ATCC 9027; 24 h, 37 °C).
With `Cc1cc(F)ccc1CNO` the MIC50 was under 70 µg/mL (microbial growth; ATCC15692; 8 h).
With `CC[C@H](C)[C@H](NC(=O)[C@H](C)NC(=O)[C@@H](NC(=O)[C@H](C)NC(=O)CNC(C)=O)[C@@H](C)O)C(=O)N[C@@H](CCCCN)C(=O)N[C@@H](CCC(N)=O)C(=O)N[C@H](C(=O)N[C@@H](CCCCN)C(=O)N[C@@H](CCCCN)C(=O)N[C@@H](CC(C)C)C(=O)N[C@@H](Cc1ccccc1)C(=O)N[C@@H](CCCCN)C(=O)N[C@@H](CCCCN)C(=O)N[C@@H](CCCCN)C(=O)NCC(=O)NCC(N)=O)C(C)C` the MBC was over 620 µM (ATCC 9027; 24 h, 37 °C).
With `CC(C)C[C@H](NC(=O)[C@H](C)NC(=O)[C@H](CC(C)C)NC(=O)[C@H](CCCCN)NC(=O)[C@H](CCCCN)NC(=O)[C@H](Cc1c[nH]c2ccccc12)NC(=O)[C@H](CC(C)C)NC(=O)[C@H](CC(C)C)NC(=O)[C@H](C)NC(=O)[C@@H]1CCCN1C(=O)[C@H](CCCCN)NC(=O)[C@H](CCCCN)NC(=O)[C@H](CC(C)C)NC(=O)[C@H](C)NC(=O)[C@H](CC(C)C)NC(=O)[C@H](C)NC(=O)[C@H](CC(C)C)NC(=O)[C@H](CCCCN)NC(=O)[C@@H](N)CCCCN)C(=O)N[C@@H](C)C(=O)N[C@@H](CC(C)C)C(=O)N[C@@H](CCCCN)C(=O)N[C@@H](CCCCN)C(=O)N[C@@H](C)C(N)=O` the MIC50 was 9.16 ± 1.43 µM (broth microdilution; PAO1; overnight, 37 °C).
With `CC[C@H](C)CCCCC(=O)N[C@@H](CCN)C(=O)N[C@H](C(=O)N[C@@H](CCN)C(=O)N[C@H]1CCNC(=O)[C@H]([C@@H](C)O)NC(=O)[C@H](CCN)NC(=O)[C@H](CCN)NC(=O)[C@H](CC(C)C)NC(=O)[C@@H](Cc2ccccc2)NC(=O)[C@H](CCN)NC1=O)[C@@H](C)O` the MIC decrease was 2 fold (PAO1 vacJ mutant, cation-adjusted Mueller-Hinton broth; reference: vacJ mutant over wild type).
With `CC(C)C[C@H](NC(=O)[C@H](C)NC(=O)[C@H](CC(C)C)NC(=O)[C@H](CCCCN)NC(=O)[C@H](CCCCN)NC(=O)[C@H](Cc1c[nH]c2ccccc12)NC(=O)[C@H](CC(C)C)NC(=O)[C@H](CC(C)C)NC(=O)[C@H](C)NC(=O)[C@H](CC(C)C)NC(=O)[C@H](CCCCN)NC(=O)[C@H](CCCCN)NC(=O)[C@@H]1CCCN1C(=O)[C@H](C)NC(=O)[C@H](CC(C)C)NC(=O)[C@H](C)NC(=O)[C@H](CC(C)C)NC(=O)[C@H](CCCCN)NC(=O)[C@@H](N)CCCCN)C(=O)N[C@@H](C)C(=O)N[C@@H](CC(C)C)C(=O)N[C@@H](CCCCN)C(=O)N[C@@H](CCCCN)C(=O)N[C@@H](C)C(N)=O` the MIC50 was 4.45 ± 0.19 µM (broth microdilution; PAO1; overnight, 37 °C).
With `CC[C@H](C)[C@H](NC(=O)[C@H](C)NC(=O)[C@@H](NC(=O)[C@H](C)NC(=O)CN)[C@@H](C)O)C(=O)N[C@@H](CCCCN)C(=O)N[C@@H](CCC(N)=O)C(=O)N[C@H](C(=O)N[C@@H](CCCCN)C(=O)N[C@@H](CCCCN)C(=O)N[C@@H](CC(C)C)C(=O)N[C@@H](Cc1ccccc1)C(=O)N[C@@H](CCCCN)C(=O)N[C@@H](CCCCN)C(=O)N[C@@H](CCCCN)C(=O)NCC(=O)NCC(N)=O)C(C)C` the MBC was over 620 µM (ATCC 9027; 24 h, 37 °C).
For `CC(C)C[C@H](NC(=O)[C@H](C)NC(=O)[C@H](CCCCN)NC(=O)[C@H](Cc1c[nH]c2ccccc12)NC(=O)[C@H](CC(C)C)NC(=O)[C@H](CC(C)C)NC(=O)[C@H](C)NC(=O)[C@@H]1CCCN1C(=O)[C@H](CCCCN)NC(=O)[C@H](C)NC(=O)[C@H](CC(C)C)NC(=O)[C@H](C)NC(=O)[C@H](CC(C)C)NC(=O)[C@H](CCCCN)NC(=O)[C@H](CC(C)C)NC(=O)[C@H](CCCCN)NC(=O)[C@@H](N)CCCCN)C(=O)N[C@@H](C)C(=O)N[C@@H](CC(C)C)C(=O)N[C@@H](CCCCN)C(=O)N[C@@H](CC(C)C)C(=O)N[C@@H](CCCCN)C(=O)N[C@@H](CCCCN)C(=O)N[C@@H](C)C(N)=O`, the MIC50 was 4.14 ± 0.23 µM (broth microdilution; PAO1; overnight, 37 °C).
`O=C(O)c1cn(C2CC2)c2cc(N3CCNCC3)c(F)cc2c1=O` gave a survival of 60% (ATCC 19429, Galleria mellonella larvae; 5 µg single dose, given immediately after infection).
